Experimental data from different studies.
Lines come from different studies, so protocols differ. Numbers after ± are the reported error.
lecB: Fucose-binding lectin PA-IIL (lecB, Pseudomonas aeruginosa, UniProt Q9HYN5)
UniProt Q9UER7, sequence (55-144, looked up): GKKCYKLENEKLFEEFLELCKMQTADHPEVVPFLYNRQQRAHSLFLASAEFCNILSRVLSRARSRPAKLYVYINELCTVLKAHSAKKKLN
UniProt P02554, sequence (whole entry, looked up): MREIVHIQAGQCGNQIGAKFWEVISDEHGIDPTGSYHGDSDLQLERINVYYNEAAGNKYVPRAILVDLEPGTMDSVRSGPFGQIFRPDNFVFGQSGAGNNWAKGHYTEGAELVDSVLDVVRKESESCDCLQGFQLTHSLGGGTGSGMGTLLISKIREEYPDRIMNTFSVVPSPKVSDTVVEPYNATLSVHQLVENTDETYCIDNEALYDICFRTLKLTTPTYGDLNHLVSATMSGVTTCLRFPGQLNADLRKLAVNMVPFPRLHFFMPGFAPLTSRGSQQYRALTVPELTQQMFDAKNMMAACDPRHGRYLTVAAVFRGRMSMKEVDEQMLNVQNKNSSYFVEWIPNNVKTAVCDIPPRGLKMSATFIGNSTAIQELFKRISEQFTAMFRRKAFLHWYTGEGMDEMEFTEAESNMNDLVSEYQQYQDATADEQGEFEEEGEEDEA
UniProt P11362, sequence (whole entry, looked up): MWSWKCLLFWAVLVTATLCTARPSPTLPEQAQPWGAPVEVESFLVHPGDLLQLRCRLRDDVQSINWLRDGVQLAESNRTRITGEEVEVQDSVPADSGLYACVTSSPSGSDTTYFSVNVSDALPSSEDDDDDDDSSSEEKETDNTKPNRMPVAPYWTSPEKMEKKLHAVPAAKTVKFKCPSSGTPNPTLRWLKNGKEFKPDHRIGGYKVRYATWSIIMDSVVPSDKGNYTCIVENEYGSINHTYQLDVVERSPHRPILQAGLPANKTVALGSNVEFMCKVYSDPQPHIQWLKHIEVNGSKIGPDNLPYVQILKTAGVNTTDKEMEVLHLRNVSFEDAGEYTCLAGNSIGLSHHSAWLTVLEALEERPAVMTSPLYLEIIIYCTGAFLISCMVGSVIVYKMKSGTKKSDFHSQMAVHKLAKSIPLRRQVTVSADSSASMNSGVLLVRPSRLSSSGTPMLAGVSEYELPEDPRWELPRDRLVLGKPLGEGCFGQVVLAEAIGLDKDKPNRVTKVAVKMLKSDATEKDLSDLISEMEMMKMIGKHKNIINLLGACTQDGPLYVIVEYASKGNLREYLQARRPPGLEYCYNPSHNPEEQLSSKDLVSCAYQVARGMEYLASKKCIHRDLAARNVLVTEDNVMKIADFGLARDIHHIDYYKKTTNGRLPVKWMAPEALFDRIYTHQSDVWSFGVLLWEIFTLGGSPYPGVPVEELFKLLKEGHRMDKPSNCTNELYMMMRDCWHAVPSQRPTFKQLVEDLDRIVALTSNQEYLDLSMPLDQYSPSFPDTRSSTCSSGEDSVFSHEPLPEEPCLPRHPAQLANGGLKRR
UniProt Q9LFP6, sequence (whole entry, looked up): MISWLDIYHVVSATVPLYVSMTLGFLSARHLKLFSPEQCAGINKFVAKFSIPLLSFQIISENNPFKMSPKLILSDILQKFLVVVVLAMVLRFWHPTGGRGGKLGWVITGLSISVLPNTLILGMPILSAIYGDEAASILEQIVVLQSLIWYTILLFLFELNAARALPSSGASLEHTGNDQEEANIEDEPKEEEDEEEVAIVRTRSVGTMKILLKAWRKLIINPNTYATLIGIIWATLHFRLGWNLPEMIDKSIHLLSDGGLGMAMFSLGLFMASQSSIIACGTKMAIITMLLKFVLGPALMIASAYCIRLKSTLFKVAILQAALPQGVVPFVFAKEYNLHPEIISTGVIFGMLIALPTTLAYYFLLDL
UniProt P25440, sequence (whole entry, looked up): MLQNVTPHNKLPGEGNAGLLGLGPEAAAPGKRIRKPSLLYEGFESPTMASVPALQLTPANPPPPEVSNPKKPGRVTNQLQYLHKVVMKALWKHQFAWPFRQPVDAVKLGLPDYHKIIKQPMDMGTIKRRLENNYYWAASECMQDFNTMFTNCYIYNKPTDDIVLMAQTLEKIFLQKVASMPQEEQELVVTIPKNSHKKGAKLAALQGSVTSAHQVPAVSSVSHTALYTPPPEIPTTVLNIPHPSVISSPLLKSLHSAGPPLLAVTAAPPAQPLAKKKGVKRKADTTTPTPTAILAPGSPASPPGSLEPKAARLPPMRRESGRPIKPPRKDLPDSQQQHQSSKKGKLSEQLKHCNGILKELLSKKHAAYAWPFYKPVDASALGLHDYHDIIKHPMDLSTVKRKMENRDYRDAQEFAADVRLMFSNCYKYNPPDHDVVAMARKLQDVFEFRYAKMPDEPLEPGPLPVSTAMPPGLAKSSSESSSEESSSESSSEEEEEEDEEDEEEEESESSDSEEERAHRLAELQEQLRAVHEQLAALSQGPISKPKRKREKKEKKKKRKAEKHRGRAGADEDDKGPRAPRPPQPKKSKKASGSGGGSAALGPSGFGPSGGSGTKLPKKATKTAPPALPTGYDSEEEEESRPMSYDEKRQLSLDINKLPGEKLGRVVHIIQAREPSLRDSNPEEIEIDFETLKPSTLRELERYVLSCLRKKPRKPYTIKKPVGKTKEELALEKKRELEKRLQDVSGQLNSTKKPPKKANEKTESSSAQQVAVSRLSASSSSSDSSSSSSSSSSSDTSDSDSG
UniProt Q06911, sequence (whole entry, looked up): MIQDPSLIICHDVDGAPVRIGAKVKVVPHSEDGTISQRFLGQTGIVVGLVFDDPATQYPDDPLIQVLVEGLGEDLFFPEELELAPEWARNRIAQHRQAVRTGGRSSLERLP
UniProt Q9Y657, sequence (whole entry, looked up): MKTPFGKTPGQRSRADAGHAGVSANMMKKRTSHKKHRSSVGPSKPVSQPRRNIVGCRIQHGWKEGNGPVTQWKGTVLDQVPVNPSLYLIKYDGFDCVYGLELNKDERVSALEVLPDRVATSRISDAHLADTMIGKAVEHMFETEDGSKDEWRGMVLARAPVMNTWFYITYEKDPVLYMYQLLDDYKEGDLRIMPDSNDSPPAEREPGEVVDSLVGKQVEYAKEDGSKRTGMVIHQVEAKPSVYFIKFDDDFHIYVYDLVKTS
UniProt P07492, sequence (whole entry, looked up): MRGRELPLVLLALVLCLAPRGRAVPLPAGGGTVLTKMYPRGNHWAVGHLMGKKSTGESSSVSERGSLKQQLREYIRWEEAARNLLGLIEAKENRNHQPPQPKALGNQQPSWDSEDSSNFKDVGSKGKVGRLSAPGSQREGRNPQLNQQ
UniProt O66465, sequence (whole entry, looked up): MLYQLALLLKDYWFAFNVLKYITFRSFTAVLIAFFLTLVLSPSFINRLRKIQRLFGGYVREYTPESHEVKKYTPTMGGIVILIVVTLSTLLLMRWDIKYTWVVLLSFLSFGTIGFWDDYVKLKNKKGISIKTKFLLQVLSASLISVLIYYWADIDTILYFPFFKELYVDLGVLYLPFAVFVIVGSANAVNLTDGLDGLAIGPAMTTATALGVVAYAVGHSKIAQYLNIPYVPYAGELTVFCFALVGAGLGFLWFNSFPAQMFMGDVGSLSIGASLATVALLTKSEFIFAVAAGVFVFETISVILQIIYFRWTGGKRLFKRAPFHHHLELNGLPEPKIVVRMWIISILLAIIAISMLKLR
UniProt O04197, sequence (whole entry, looked up): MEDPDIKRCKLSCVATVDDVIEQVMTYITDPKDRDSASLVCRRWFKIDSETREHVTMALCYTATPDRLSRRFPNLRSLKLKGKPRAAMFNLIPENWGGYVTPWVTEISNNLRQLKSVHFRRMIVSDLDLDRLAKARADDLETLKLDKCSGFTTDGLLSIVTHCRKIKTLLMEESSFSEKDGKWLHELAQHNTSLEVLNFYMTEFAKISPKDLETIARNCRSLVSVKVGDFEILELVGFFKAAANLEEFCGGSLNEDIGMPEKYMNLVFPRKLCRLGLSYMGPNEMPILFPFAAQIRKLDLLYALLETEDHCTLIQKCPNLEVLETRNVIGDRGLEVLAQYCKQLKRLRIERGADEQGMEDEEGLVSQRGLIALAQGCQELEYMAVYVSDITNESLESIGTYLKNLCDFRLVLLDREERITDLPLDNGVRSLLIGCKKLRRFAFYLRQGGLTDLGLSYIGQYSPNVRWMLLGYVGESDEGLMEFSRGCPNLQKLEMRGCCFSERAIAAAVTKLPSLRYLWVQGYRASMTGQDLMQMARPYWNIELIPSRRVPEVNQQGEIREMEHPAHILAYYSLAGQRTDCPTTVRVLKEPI
UniProt Q16762, sequence (whole entry, looked up): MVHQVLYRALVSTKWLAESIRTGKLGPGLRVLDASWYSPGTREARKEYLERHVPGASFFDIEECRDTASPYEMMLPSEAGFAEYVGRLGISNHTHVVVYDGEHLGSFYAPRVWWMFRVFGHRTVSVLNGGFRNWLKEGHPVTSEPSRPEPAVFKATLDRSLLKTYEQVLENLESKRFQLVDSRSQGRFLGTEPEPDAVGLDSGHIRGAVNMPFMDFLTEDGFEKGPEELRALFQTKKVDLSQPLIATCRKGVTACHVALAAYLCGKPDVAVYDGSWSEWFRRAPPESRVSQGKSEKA
UniProt P02550, sequence (whole entry, looked up): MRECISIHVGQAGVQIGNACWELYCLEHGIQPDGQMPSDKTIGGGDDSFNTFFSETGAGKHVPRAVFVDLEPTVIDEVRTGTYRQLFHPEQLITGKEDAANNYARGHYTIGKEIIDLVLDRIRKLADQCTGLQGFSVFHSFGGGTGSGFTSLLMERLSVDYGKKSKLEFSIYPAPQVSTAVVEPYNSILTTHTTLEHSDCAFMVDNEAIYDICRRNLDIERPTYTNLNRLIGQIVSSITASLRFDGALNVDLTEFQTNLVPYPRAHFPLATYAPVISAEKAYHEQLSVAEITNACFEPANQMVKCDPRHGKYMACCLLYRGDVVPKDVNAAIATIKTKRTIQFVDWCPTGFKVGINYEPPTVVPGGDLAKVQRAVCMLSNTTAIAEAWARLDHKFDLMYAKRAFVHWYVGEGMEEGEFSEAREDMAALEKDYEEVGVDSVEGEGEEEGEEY

SMILES | target | assay | setting | scale | Kd [nM]
CC[C@H](C)[C@H](NC(=O)[C@H](Cc1c[nH]cn1)NC(=O)[C@H](CCCCNC(=O)[C@@H](NC(=O)[C@H](CCCCN)NC(=O)[C@H](CCCCNC(=O)[C@H](CC(C)C)NC(=O)[C@@H]1CCCN1C(=O)[C@H](CCCCN)NC(=O)CSCCCCCCO[C@@H]1O[C@H](CO)[C@@H](O[C@@H]2O[C@@H](C)[C@@H](O)[C@@H](O)[C@@H]2O)[C@H](O[C@@H]2O[C@H](CO)[C@H](O)[C@H](O)[C@H]2O)[C@H]1NC(C)=O)NC(=O)[C@H](CC(C)C)NC(=O)[C@@H]1CCCN1C(=O)[C@H](CCCCN)NC(=O)CSCCCCCCO[C@@H]1O[C@H](CO)[C@@H](O[C@@H]2O[C@@H](C)[C@@H](O)[C@@H](O)[C@@H]2O)[C@H](O[C@@H]2O[C@H](CO)[C@H](O)[C@H](O)[C@H]2O)[C@H]1NC(C)=O)[C@@H](C)CC)NC(=O)[C@@H](NC(=O)[C@H](CCCCN)NC(=O)[C@H](CCCCNC(=O)[C@H](CC(C)C)NC(=O)[C@@H]1CCCN1C(=O)[C@H](CCCCN)NC(=O)CSCCCCCCO[C@@H]1O[C@H](CO)[C@@H](O[C@@H]2O[C@@H](C)[C@@H](O)[C@@H](O)[C@@H]2O)[C@H](O[C@@H]2O[C@H](CO)[C@H](O)[C@H](O)[C@H]2O)[C@H]1NC(C)=O)NC(=O)[C@H](CC(C)C)NC(=O)[C@@H]1CCCN1C(=O)[C@H](CCCCN)NC(=O)CSCCCCCCO[C@@H]1O[C@H](CO)[C@@H](O[C@@H]2O[C@@H](C)[C@@H](O)[C@@H](O)[C@@H]2O)[C@H](O[C@@H]2O[C@H](CO)[C@H](O)[C@H](O)[C@H]2O)[C@H]1NC(C)=O)[C@@H](C)CC)C(N)=O | lecB | binding, ITC | pH 7.5 | – | 39
CC[C@H](C)[C@H](NC(=O)[C@H](CCCNC(=N)N)NC(=O)[C@H](CC(N)=O)NC(=O)[C@H](CCC(=O)O)NC(=O)[C@@H]1CCCN1C(=O)[C@H](CC(=O)O)NC(=O)[C@H](CC(N)=O)NC(=O)[C@H](CC(=O)O)NC(=O)[C@H](CC(=O)O)NC(=O)[C@@H](N)CO)C(=O)N[C@@H](C)C(=O)N[C@@H](CCCCN)C(=O)N[C@@]1(C)CCCC=CCCC[C@@](C)(C(=O)N[C@@H](CCC(=O)O)C(=O)N[C@H](C(=O)N[C@@H](CCCCN)C(=O)N[C@@H](C)C(=O)N[C@@H](CC(N)=O)C(=O)N[C@@H](CC(C)C)C(=O)N[C@@H](CO)C(=O)O)[C@@H](C)CC)NC(=O)[C@H](CC(C)C)NC(=O)[C@H](CC(C)C)NC(=O)[C@H](CCSC)NC1=O | Death domain-associated protein 6, residues 55-144 (Homo sapiens, UniProt Q9UER7) | isothermal titration calorimetry | pH 7.5, 25 °C | – | 180
CC[C@H](C)[C@H](NC(=O)[C@H](Cc1ccc(O)cc1)NC(=O)[C@H](CCCNC(=N)N)NC(=O)[C@H](Cc1ccc(O)cc1)NC(=O)[C@H](CCSC)NC(C)=O)C(=O)N[C@H]1CSCc2cccc(c2)CSC[C@@H](C(=O)N[C@@H](CC(C)C)C(=O)N[C@@H](C)C(=O)N[C@@H](CO)C(=O)N[C@@H](Cc2ccc(O)cc2)C(=O)NCC(=O)N[C@@H](CO)C(=O)NCC(=O)N[C@@H](CO)C(=O)NCC(=O)N[C@@H](CO)C(=O)N[C@@H](CC(=O)O)C(=O)N[C@@H](Cc2ccc(O)cc2)C(=O)N[C@@H](CCCCN)C(=O)N[C@@H](CC(=O)O)C(=O)N[C@@H](CC(=O)O)C(=O)N[C@@H](CC(=O)O)C(=O)N[C@@H](CC(=O)O)C(=O)N[C@@H](CCCCN)C(N)=O)NC(=O)[C@H](CC(N)=O)NC(=O)[C@H](CO)NC(=O)[C@H](CC(C)C)NC(=O)[C@H]([C@@H](C)O)NC1=O | FGFR1 (Homo sapiens, UniProt P11362) | binding, BLI | – | – | > 10000
CC[C@H](C)[C@H](NC(=O)CNC(C)=O)C(=O)N[C@@H](CCCNC(=N)N)C(=O)N[C@@H](CCC(=O)O)C(=O)N[C@@H](C)C(=O)N[C@H](C(=O)N[C@@H](CC(C)C)C(=O)N[C@@H](CCCNC(=N)N)C(=O)N[C@@H](C)C(=O)N[C@@H](Cc1c[nH]c2ccccc12)C(=O)N[C@@H](CCC(=O)O)C(=O)N[C@@H](CCCNC(=N)N)C(=O)N[C@@H](CCCNC(=N)N)C(=O)N[C@@H](Cc1ccc(O)cc1)C(=O)NCC(=O)N[C@@H](Cc1ccccc1)C(=O)N1CCC[C@H]1C(=O)N[C@@H](CCCNC(=N)N)C(=O)N1CCC[C@H]1C(=O)N[C@@H](CC(C)C)C(=O)N[C@@H](CCCNC(=N)N)C(=O)N[C@@H](CO)C(=O)N[C@@H](CCC(=O)O)C(N)=O)[C@@H](C)O | Antirepressor protein CarS (carS, Myxococcus xanthus, UniProt Q06911) | isothermal titration calorimetry | pH 7.5, 30 °C | – | 200 ± 17
CC[C@H](C)[C@H](NC(=O)[C@H](Cc1c[nH]c2ccccc12)NC(=O)[C@@H](NC(=O)[C@H](CCCCN)NC(=O)[C@H](CO)NC(=O)[C@H](Cc1ccccc1)NC(=O)[C@@H](N)[C@@H](C)O)C(C)C)C(=O)N[C@H](C(=O)N[C@@H](CO)C(=O)N[C@@H](CCCCN)C(=O)N[C@@H](CC(=O)O)C(=O)N[C@H](C(=O)O)[C@@H](C)O)C(C)C | Gastrin-releasing peptide (Homo sapiens, UniProt P07492) | biolayer interferometry | – | – | 160
O=C1SCCC1NC(C(=O)NCc1ccccc1)C1CC1 (stereo not shown) | TST (Homo sapiens, UniProt Q16762) | activator | – | – | 15200
COC(=O)C(C)C1N=C(c2ccc(Cl)cc2)c2cc(OC)ccc2-n2c(C)nnc21 (stereo not shown) | Bromodomain-containing protein 2, BD1 (BRD2, Homo sapiens, UniProt P25440) | binding, ITC | – | – | 1500
CC(C)C[C@H](NC(=O)[C@H](CCCNC(=N)N)NC(=O)[C@H](CCC(=O)O)NC(=O)[C@H](CCCCN)NC(=O)[C@H](CCCNC(=N)N)NC(=O)[C@H](CCCCN)NC(=O)[C@H](CCC(=O)O)NC(=O)[C@H](CC(C)C)NC(=O)[C@H](Cc1ccccc1)NC(=O)[C@H](CCCNC(=N)N)NC(=O)[C@H](C)NC(=O)[C@H](CC(C)C)NC(=O)[C@H](CO)NC(=O)[C@H](C)NC(=O)[C@H](CCCCN)NC(=O)[C@H](CCCNC(=N)N)NC(=O)[C@H](C)NC(=O)[C@H](CCC(N)=O)NC(=O)[C@@H]1CCCN1C(=O)[C@@H](NC(=O)[C@H](CO)NC(=O)c1ccc2c(c1)C(=O)OC21c2ccc(N(C)C)cc2Oc2cc(N(C)C)ccc21)C(C)C)C(=O)O | COI1, with JA-Ile (Arabidopsis thaliana, UniProt O04197) | COI1-JAZ binding, fluorescence anisotropy | pH 7.8, 25 °C, together with: IP5 100 nM | lower = stronger binding | 15 ± 4.3
CNC(=N)NCCC[C@H](NC(=O)[C@H](C)NC(=O)[C@@H](NC(=O)[C@H](CCC(N)=O)NC(=O)[C@H](CCCC[N+](C)(C)C)NC(=O)[C@@H](NC(=O)[C@H](CCCNC(=N)N)NC(=O)[C@H](C)N)[C@@H](C)O)[C@@H](C)O)C(=O)N[C@@H](CCCCN)C(=O)N[C@@H](CO)C(=O)O | Spindlin-1 (SPIN1, Homo sapiens, UniProt Q9Y657) | binding, ITC | pH 7.5 | – | 139
C[C@@H](O)[C@@H]1NC(=O)[C@H](CCCCN)NC(=O)CCCC(=O)NCCCC[C@@H](C(=O)NCC(=O)NCC(=O)N[C@@H](Cc2ccc(O)cc2)C(=O)NCC(=O)N[C@@H](CCCNC(=N)N)C(=O)N[C@@H](CCCCN)C(=O)N[C@@H](CCCCN)C(=O)N[C@@H](CCCNC(=N)N)C(=O)N[C@@H](CCCNC(=N)N)C(=O)N[C@@H](CCC(N)=O)C(=O)N[C@@H](CCCNC(=N)N)C(=O)N[C@@H](CCCNC(=N)N)C(=O)N[C@@H](CCCNC(=N)N)C(N)=O)NC(=O)[C@H](CCCCN)NC(=O)[C@H](CCC(=O)O)NC(=O)[C@H](CC(=O)O)NC(=O)CNC1=O | HSP90AA1 (Homo sapiens, UniProt P07900) | binding, field-effect biosensor | pH 7.4 | – | 115000 ± 54500
O=C(O)COc1ccc(Cl)cc1 | PIN8 (Arabidopsis thaliana, UniProt Q9LFP6) | cell-free assay | – | – | 304000
CC[C@H](C)[C@H](NC(=O)[C@H](CCC(=O)O)NC(=O)[C@H](CS)NC(=O)[C@@H](NC(=O)CNC(=O)[C@H](CO)NC(=O)[C@H](CC(C)C)NC(=O)[C@H](CO)NC(=O)[C@H](CCC(=O)O)NC(=O)[C@H](CCCNC(=N)N)NC(=O)[C@@H](NC(=O)[C@H](C)NC(=O)[C@H](CS)NC(=O)[C@H](CCCNC(=N)N)NC(=O)CNC(=O)[C@@H](NC(=O)[C@H](CCCNC(=N)N)NC(=O)[C@H](CS)NC(=O)[C@H](Cc1ccc(O)cc1)NC(=O)[C@H](CS)NC(=O)[C@@H](NC(=O)[C@H](C)N)[C@@H](C)O)[C@@H](C)O)[C@@H](C)O)C(C)C)C(=O)N[C@@H](CO)C(=O)NCC(=O)N[C@@H](CCCNC(=N)N)C(=O)N[C@@H](CC(C)C)C(=O)N[C@@H](Cc1ccc(O)cc1)C(=O)N[C@@H](CCCNC(=N)N)C(=O)N[C@@H](CC(C)C)C(=O)N[C@@H](CS)C(=O)N[C@@H](CS)C(=O)N[C@@H](CCCNC(=N)N)C(=O)O | Zn(II) | metal binding, Zinpyr-4 competition titration | pH 7.4, 2:1 binding model, anaerobic | – | 0.247 ± 0.023
N[C@H](Cc1ccccc1)P(=O)(O)O | PAL1 (Petroselinum crispum, UniProt P24481, Y110F) | ITC | pH 8.0, 30 °C | – | 6200
CC[C@H](C)[C@H](NC(=O)[C@H](Cc1c[nH]cn1)NC(=O)[C@H](CCCCNC(=O)[C@@H](NC(=O)[C@H](CCCCN)NC(=O)CSC[C@H](NC(=O)[C@H](Cc1ccccc1)NC(=O)[C@H](CCCCNC(=O)[C@H](CC(C)C)NC(=O)[C@H](CCCCN)NC(=O)[C@H](CCCCN)NC(=O)C[C@@H]1O[C@@H](C)[C@@H](O)[C@@H](O)[C@@H]1O)NC(=O)[C@H](CC(C)C)NC(=O)[C@H](CCCCN)NC(=O)[C@H](CCCCN)NC(=O)CCS[C@@H]1O[C@H](CO)[C@H](O)[C@H](O)[C@H]1O)C(N)=O)[C@@H](C)CC)NC(=O)[C@@H](NC(=O)[C@H](CCCCN)NC(=O)CSC[C@H](NC(=O)[C@H](Cc1ccccc1)NC(=O)[C@H](CCCCNC(=O)[C@H](CC(C)C)NC(=O)[C@H](CCCCN)NC(=O)[C@H](CCCCN)NC(=O)C[C@@H]1O[C@@H](C)[C@@H](O)[C@@H](O)[C@@H]1O)NC(=O)[C@H](CC(C)C)NC(=O)[C@H](CCCCN)NC(=O)[C@H](CCCCN)NC(=O)CCS[C@@H]1O[C@H](CO)[C@H](O)[C@H](O)[C@H]1O)C(N)=O)[C@@H](C)CC)C(N)=O | lecB | binding, ITC | pH 7.5 | – | 193
CC[C@H](C)[C@H](NC(=O)[C@H](CCC(N)=O)NC(=O)[C@@H](NC(=O)[C@H](CCCCN)NC(=O)CNC(=O)CNC(=O)CNC(=O)[C@@H]1CCCN1C(=O)[C@H](CCC(N)=O)NC(=O)[C@H](Cc1c[nH]cn1)NC(=O)[C@H](CCCCN)NC(=O)CNC(=O)CNC(=O)CNC(=O)[C@@H](N)CSC1CC(=O)N(c2ccc3c(c2)C(=O)OC32c3ccc(N(C)C)cc3Oc3cc(N(C)C)ccc32)C1=O)C(C)C)C(=O)N[C@H](C(=O)N[C@@H](CC(N)=O)C(=O)N[C@@H](CCCCN)C(=O)N[C@@H](CCCCN)C(=O)N[C@@H](CC(C)C)C(=O)N[C@@H](CC(=O)O)C(=O)N[C@@H](CC(C)C)C(=O)O)[C@@H](C)CC (stereo partly shown) | Tubulin alpha-1A/beta chain (Sus scrofa, UniProt P02550+P02554) | binding, equilibrium dialysis | pH 6.9, 25 °C | – | 3400
CC(C)CC(NC(=O)C(NC(=O)NC(C(=O)O)C(C)C)C1CCNC(=N)N1)C(=O)NCCCNC(C(=O)O)C(OC1OC(CN)C(O)C1O)C1OC(n2ccc(=O)[nH]c2=O)C(O)C1O (stereo not shown) | mraY (Aquifex aeolicus, UniProt O66465) | isothermal titration calorimetry | no added Mg2+ | – | 14.8
